Measured values collected from several papers.
Compare with care: the assays were run in different laboratories. ± marks the error that the study gave.

The IC50 of CC(C)C[C@@H](/C=C/S(C)(=O)=O)NC(=O)[C@H](CC(C)C)NC(=O)[C@@H](NC(=O)N[C@H](C(=O)NCc1ccccc1)C(C)C)C(C)C is reported as 640 nM (rabbit 26S proteasome beta5; chymotrypsin-like activity; 30 min, 37 °C, with: Suc-LLVY-AMC).
With Oc1ccc(Cl)cc1-c1nc2c(C(F)(F)F)cc(C(F)(F)F)cc2[nH]1 the IC50 was 2290 ± 1550 nM (NF-κB (human); reporter gene, inhibitor; HEK293 NF-κB luciferase reporter; with: TNFα).
CCC(=O)CCCCC[C@@H]1NC(=O)[C@H]2CCCCN2C(=O)[C@H]([C@@H](C)CC)NC(=O)[C@H](Cc2cn(OC)c3ccccc23)NC1=O gave an IC50 of 9 nM (HDAC, human; enzyme activity, inhibitor; HeLa nuclear extract).
CO[C@H]1[C@H](O)[C@@H](N)[C@@H](O[C@H]2[C@H](O[C@@H]3O[C@H](CO)[C@@H](O[C@H]4O[C@@H](CN)[C@@H](O)[C@H](O)[C@H]4N)[C@H]3O)[C@@H](O)[C@H](N)C[C@@H]2N)O[C@@H]1CO has an IC50 of 107 ± 24.3 µg/mL (ribosome with mitochondrial A site; luciferase translation, cell-free translation).
With CC[C@@H]1CN2CCc3c([nH]c4cccc(OC)c34)[C@@H]2C[C@@H]1/C(=C\OC)C(=O)OC the IC50 was 4.89 µg/mL (rabbit anti-mitragynine polyclonal IgG; competitive indirect ELISA; salt 1.67 M).
NC[C@@H]1O[C@H](O[C@H]2[C@@H](O)[C@H](O[C@@H]3[C@@H](O)[C@H](N)C[C@H](N)[C@H]3O[C@H]3O[C@H](CO)[C@@H](OCCCO)[C@H](O)[C@H]3N)O[C@@H]2CO)[C@H](N)[C@@H](O)[C@@H]1O has an IC50 of over 700 µg/mL (ribosome with mitochondrial A1555G A site; luciferase translation, cell-free translation).
For CC[C@H](C)[C@@H]1NC(=O)[C@H](Cc2ccc(O)cc2)NC(=O)[C@@H](N)CSSC[C@@H](C(=O)N2CCC[C@H]2C(=O)N2CCC[C@H]2C(=O)NCC(N)=O)NC(=O)[C@H](CC(N)=O)NC(=O)[C@H](CCC(N)=O)NC1=O, the IC50 was 1.49 nM (oxytocin receptor (Callithrix jacchus); membrane hyperpolarisation; CHO cells).
CCCCCO[C@H]1[C@H](O)[C@@H](N)[C@@H](O[C@H]2[C@H](O[C@@H]3O[C@H](CO)[C@@H](O[C@H]4O[C@@H](CN)[C@@H](O)[C@H](O)[C@H]4N)[C@H]3O)[C@@H](O)[C@H](N)C[C@@H]2N)O[C@@H]1CO gave an IC50 of 109 ± 6.73 µg/mL (ribosome with mitochondrial A site; luciferase translation, cell-free translation).
CCCCCCCCC(=O)NCc1ccc(O)c(OC)c1 has an IC50 of 2.13 µg/mL (mouse mAb 1-D6; antibody binding, indirect competitive ELISA).
